Results from different studies.
Every numbered part comes from another study and shows a few of its results, in no order.

Block 1
Target: Prothrombin, mature alpha-thrombin (F2, Homo sapiens, UniProt P00734)
Technique: aptamer microarray, sandwich
Form: DNA with 2'F-ANA
Sample: in vitro
Tested at: 200 nM
Notes: whole 15-mer aptamer, many near background
Together with: Cy3 exosite-II aptamer, 400 nM
Reading: higher = stronger binding
Quantity: mean fluorescence intensity
Sequence: GGTTGGTGTGGTTGG
2'F-ANA at 2 3 7 11 13 14 15: 432 a.u.
2'F-ANA at 2 7 10 13 14 15: 90.9 a.u.
2'F-ANA at 1 2 3 5 7 8 12 15: 129 a.u.
2'F-ANA at 5 12 14 15: 47.4 a.u.
2'F-ANA at 3 4 7 8 9 10 12 13: 350 a.u.

Block 2
Target: RING finger protein unkempt homolog, zinc fingers 1-6, GST-SBP tag (UNK, Homo sapiens, UniProt Q9C0B0, residues 30-357)
Technique: RNA Bind-n-Seq
Form: RNA
Sample: in vitro
Tested at: not given
Notes: RNA with constant flanks, human-mouse chimeric sites, ends assumed
Baseline: input RNA pool
Reading: higher = stronger binding
Quantity: bound/input enrichment
Construct (chain): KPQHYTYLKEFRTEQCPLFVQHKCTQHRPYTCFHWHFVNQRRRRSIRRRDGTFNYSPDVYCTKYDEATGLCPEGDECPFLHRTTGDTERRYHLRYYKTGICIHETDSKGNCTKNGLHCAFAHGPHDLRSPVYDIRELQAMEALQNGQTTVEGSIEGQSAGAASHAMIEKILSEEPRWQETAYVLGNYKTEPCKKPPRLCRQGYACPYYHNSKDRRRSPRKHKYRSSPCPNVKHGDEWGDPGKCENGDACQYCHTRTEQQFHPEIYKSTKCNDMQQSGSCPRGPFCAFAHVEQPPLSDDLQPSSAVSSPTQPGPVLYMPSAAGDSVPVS
GGGAGUUCUACAGUCCGACGAUCACUCAGAGAUCCACCUCCCAAAGUGCUGGGAGUAAAGUCUGAUAUUACACACCUAACUUGAUGGAUAUAUAUUUUUUCUCUUUUAUGUCUUCCUGUUCGUCCAGGGAAGAAAGAUUUGUUCAACAGAGGAUUGAGCAUCA: 0.972 ratio
GGGAGUUCUACAGUCCGACGAUCCGCUUGGAUGAGGCGGGUGUUACUGAUGAAGUGCUAGAUUCUGCCAUGCAAGCCUUCCUUCUGGAGGUUAUCGUUAAACAUGGGGAGCCGGCACCUUAUUUAUGUAACAAAGAUCCGUUUCAACAGAGGAUUGAGCAUCA: 0.0941 ratio
GGGAGUUCUACAGUCCGACGAUCUAAAUUAGGGCUGCCGUCCGUUCUCACUCCCUGGGCUGCAGACAGCUAGAAGAUUUUAUCUAGCUUAUACAAGGCUGCUGGUGUUCCCUCUUUUUUUCCACGAGGGUGUUUUUGGCUGCACAACAGAGGAUUGAGCAUCA: 0.637 ratio

Block 3
Target: Interferon regulatory factor 5, full length, phosphomimetic (IRF5, Homo sapiens, UniProt Q13568-2, residues 1-514, S451D/S453D/S456D/S462D)
Technique: protein-binding microarray
Form: double-stranded DNA, one strand shown
Sample: in vitro
Tested at: 940 nM top
Notes: 60-bp whole probe
Together with: salmon DNA 0.4 mg/ml
Baseline: random background probes
Reading: higher = stronger binding
Quantity: fitted relative affinity
GCCTAGCACTTAGGTTTCAACTATCGGTTAGTGCTAGTCTTGATTCGCTTGACGCTGCTG: 3.74 z-score
GCCTAGCACTTAGATATCAGTATCTATTAGTGCTAGGTCTTGATTCGCTTGACGCTGCTG: 0.849 z-score
GCCTAGCACGACGGACTGGGTCTCGGGCCGTGCTAGGTCTTGATTCGCTTGACGCTGCTG: -0.467 z-score
GCCTAGCACGACGGTTTCGGGTTTCGGGGCGTGCTAGTCTTGATTCGCTTGACGCTGCTG: 9.15 z-score

Further values, each from its own experiment
PhoQ, residues 284 288 289 292 302 303 SSYNSA  fold induction (PhoP, residues 12 14 15 18 19 VQGLL (Escherichia coli, UniProt P23836); Sort-seq, refers to: YFP reporter; E. coli; PhoQ-PhoP variant library, together with: 10 µM Mg2+; baseline: high Mg2+ state, higher = stronger signaling): 3.09

For quick reference, copied from above (block 1):
2'F-ANA at 1 2 3 5 7 8 12 15: 129 a.u.
2'F-ANA at 5 12 14 15: 47.4 a.u.
